Results pooled from the literature.
Compare with care: the assays were run in different laboratories. Values joined by “and” are separate records of one study, mostly repeats; a detail may differ. ± marks the error that the study gave.

SMILES	test	system	setting	scale	quantity	value
CCc1cc(C(=O)NC)c2nccc(N3CCc4c(cc(Cn5ccnc5)cc4-c4cn(C)nc4C(F)(F)F)C3=O)c2c1	refers to: Mono	Sprague Dawley rat	oral, 100 mg/kg once daily, 7 days	baseline: vehicle	change in clinical chemistry or haematology parameter	24.6%
CCOc1c([C@H](C)n2nc(C)c3c(N)ncnc32)cc(Cl)c(F)c1[C@@H]1CNC(=O)C1	ECG	previously treated B-cell malignancy patients	oral, 5 mg once daily, baseline below thresholds		patients with HR above 100 bpm	0%
COc1cccc(OC)c1-c1cc(C(=O)NC2(C(=O)O)C3CC4CC(C3)CC2C4)nn1-c1ccc(C(=O)N(C)CCCN(C)CCCN(C)C(=O)CN2CCN(CC(=O)[O-])CCN(CC(=O)[O-])CCN(CC(=O)[O-])CC2)cc1C(C)C.[177Lu+3] (stereo not shown)		SCID mouse, HT-29 xenograft	iv, dose not given, 4 h		excretion (urine and faeces)	55 ± 7 % ID
Cc1ccc(Sc2ccccc2N2CCNCC2)c(C)c1	refers to: any TEAE	healthy adult men	oral, 20 mg daily, 12 days		participants with TEAE	33.3%
O=C(O)c1cccc(C(=O)O)c1		betaine/propylene glycol DES-water	DES mass fraction 0.30		apparent dissolution enthalpy	4.06 kcal/mol
CC(C)[C@@H](CS(=O)(=O)C(C)C)N1C(=O)[C@@](C)(CC(=O)O)C[C@H](c2cccc(Cl)c2)[C@H]1c1ccc(Cl)cc1		FVB mouse, Abcb1a/b knockout, brain, plasma	intravenous, 20 mg/kg		brain-to-plasma ratio (Kp)	0.265
C[C@H](CCC(=O)O)[C@H]1CC[C@H]2[C@@H]3[C@H](O)C[C@@H]4C[C@H](O)CC[C@]4(C)[C@H]3C[C@H](O)[C@]12C		human, plasma	endogenous baseline diurnal		Cmin	15.6 ± 3.2 nM
COC(=O)N[C@@H](C)CNc1nccc(-c2cn(C(C)C)nc2-c2cc(Cl)cc(NS(C)(=O)=O)c2F)n1		human, plasma	oral, 50 mg, single dose, geometric mean, together with: diltiazem	baseline: compound alone	Cmax increase	~45% and 44.7%
Cc1cc(-c2cn[nH]c2-c2cccc(OCc3cccc(C#N)c3)c2)cc(C)n1		C57BL/6 mouse	intraperitoneal, 200 mg/kg daily for 5 days		tolerability	not toxic
CCc1cc2c(cc1N1CCC(N3CCOCC3)CC1)C(C)(C)c1[nH]c3cc(C#N)ccc3c1C2=O		ALK inhibitor-naive patients	oral, 600 mg twice daily, week 6		average plasma concentration	1480 nM
Cn1cc([C@H]2COC[C@@H](c3cc(Cl)cc(Cl)c3)N2)cn1	shake-flask, LC-HRMS	aqueous buffer	16 h, pH 6.8		solubility	> 750 µM
O=c1[nH]c(=O)n([C@@H]2O[C@H](CO)[C@@H](O)[C@@H]2F)cc1CCC[18F]		nude mice, RG2 tumour, skin	intravenous, dose not given, 2 h		biodistribution	0.18 ± 0.15 %ID/g
CN1CCN(C(=O)CN(c2cc(C(F)(F)F)ccc2Cl)S(=O)(=O)c2ccccc2)CC1		aqueous buffer	pH 7.4		solubility	14.3 µg/mL
CCO[C@H]1CCN(Cc2c(OC)cc(C)c3[nH]ccc23)[C@H](c2ccc(C(=O)O)cc2)C1		PNH patients, active haemolysis	oral, 50 mg, 4 weeks, treatment		incidence of abdominal discomfort	0%
Cc1noc(C)c1Cn1cc(N2C(=O)CN(Cc3cccc(O)c3)C2=O)cn1		pooled rat liver microsomes Sprague-Dawley	1 µM, 10 min, pH 7.4		remaining parent	68 % peak area
CNCc1ccc(-c2[nH]c3cc(F)cc4c3c2CCNC4=O)cc1		human patients	oral, 240 mg twice daily, all grades		vomiting incidence	0%
O=c1[nH]c(=O)n([C@@H]2O[C@H](CO)[C@@H](O)[C@@H]2F)cc1CCCCC[18F]		nude mice, RG2 tumour, kidney	intravenous, dose not given, 2 h		biodistribution	0.36 ± 0.06 %ID/g
CCOC(=O)N1C[C@@H](c2ccccc2O)N[C@@H](c2ccc(C(F)(F)F)cc2)C1	shake-flask, LC-HRMS	aqueous buffer	16 h, pH 6.8		solubility	< 4 µM
CCN1/C(=C/C(C)=O)Sc2ccc(F)cc21		cynomolgus monkey	oral, 10 mg/kg, 24 h post-dose	baseline: pre-dose	QTc interval change	96.7 ± 2.1%
Cn1cc(Nc2nccc(-c3ccc4c(c3)CN(C3COC3)CC[C@H]4NC(=O)c3cn(C(C)(C)C)nn3)n2)cn1		human, whole blood	50 mg twice daily, day 14	baseline: pre-dose baseline	monocyte count change	0.85%

SMILES	test	system	setting	scale	quantity	value
Cc1cc(C)c(CNC(=O)c2cc(Cl)c3c(c2C)O[C@@](C)([C@H]2CC[C@H](N(C)C)CC2)O3)c(=O)[nH]1		human, plasma	oral, 200 mg, cycle 1 day 1		Tmax unbound drug	2 h
Clc1cc(Cl)cc([C@@H]2COC[C@H](C3CCCC3)N2)c1	shake-flask, LC-HRMS	aqueous buffer	16 h, pH 6.8		solubility	< 4 µM
CNCCOC12CC3(C)CC(C)(CC(Cn4ncc(-c5ccc(N6CCc7cccc(C(=O)Nc8nc9ccccc9s8)c7C6)nc5C(=O)O)c4C)(C3)C1)C2		beagle dog, male, anaesthetised	intravenous bolus, 0.03 mg/kg, 30 min	baseline: baseline	heart rate change	3%
O=c1[nH]c(=O)n([C@H]2C[C@H](O)[C@@H](CO)O2)cc1CCC[18F]		male CD-1 nu/nu mice, RG2 tumour, spleen	intravenous, dose not given, 2 h		biodistribution	0.31 ± 0.11 %ID/g
COc1ccc([C@@H](O)c2cc(-c3ncnc4cc(N5CCOCC5)ccc34)c(F)cc2Cl)nn1		locally advanced rectal cancer patients	150 mg, together with: capecitabine and radiotherapy		lymphocyte count decrease TEAE	33%
COc1cccc(NC(=O)CSc2nnnn2C)c1		aqueous buffer	pH 7.4		solubility	48.6 µg/mL
CC/C(=C(/c1ccc(OCCNC)cc1)c1ccc(B2OC(C)(C)C(C)(C)O2)cc1)c1ccccc1		C57BL/6 mouse	dose not given, within 24 h		conversion to endoxifen	80 to 90%
Cc1c(-c2ccc(N3CCc4cccc(C(=O)Nc5nc6ccccc6s5)c4C3)nc2C(=O)O)cnn1CC12CC3(C)CC(C)(C1)CC(OCCNCC[C@H](O)CO)(C3)C2		anaesthetized male beagle dog	iv infusion, 0.01 mg/kg/min, 180 min		plasma concentration	< 2 ng/mL
CN(CC#N)C(=O)C[C@H](Nc1nc2ccccc2[nH]1)c1cccc(C(F)(F)F)c1		human	intravenous infusion, 1 mg/kg, 5 mg/mL formulation		apparent clearance	11.1 ± 2.52 L/h
C[C@H]1OC[C@H](c2cnn(C)c2)N[C@@H]1c1ccc(F)cc1Cl	shake-flask, LC-HRMS	aqueous buffer	16 h, pH 6.8		solubility	> 750 µM
Cc1cc([C@H]2C[C@H]3[C@@H](CF)SC(N)=N[C@@]3(c3ccc(F)cc3F)CO2)on1		male 129/SVE wild-type mouse, brain	subcutaneous, 100 mg/kg, 7 h		brain concentration	78 nM
CCOC(=O)N1C[C@H](CC(C)C)N[C@H]([C@H]2CCOC2)C1	shake-flask, LC-HRMS	aqueous buffer	16 h, pH 6.8		solubility	> 750 µM
N[C@@H]1c2ccccc2OC12CCN(c1cnc3c(N4CCCc5ncccc54)n[nH]c3n1)CC2		advanced metastatic solid tumour patients, plasma	oral, 20 mg once daily, cycle 1 day 1, geometric mean		AUC(0-tau)	1650 ng·h/mL
COc1ccc2c(c1)CN(C(=O)CCN1CCC(Cc3ccccc3)CC1)CC[S@@+]2[O-]		dog plasma	10000 ng/mL		fu	0.514
CCCC1CCC(c2ccc(OCC)c(F)c2F)CC1 (stereo not shown)		rat, placenta	10 ng/mL in perfusate, low dose, mixture of 21 LCMs		placental accumulation	2.5 ± 1.76 ng/g
Cc1ccc([C@@H]2O[C@H](CO)[C@@H](O)[C@H](O)[C@H]2O)cc1Cc1ccc(-c2ccc(F)cc2)s1		Japanese type 2 diabetes patients	400 mg, day 6, 24 h urine collection	baseline: baseline	urinary sodium excretion change	-12.7 mEq
CC(C)Oc1ccc2cc(C(=N)N)ccc2c1		aqueous buffer	pH 7.4		solubility	2500 µg/mL
Cc1cc(/C=C/C#N)cc(C)c1Nc1ccnc(Nc2ccc(C#N)cc2)n1		buffer	24 h, pH 6.8, 37 °C, below quantification limit 50 ng/mL		equilibrium solubility	not detected
CNC(=O)c1ccc(-c2cnc3ncc(Cc4ccc5ncccc5c4)n3n2)cc1F	refers to: Asthenia, all grades	gastric cancer patients	oral, 600 mg twice daily, expansion cohort, any causality		patients with adverse event	0%
N#CN1C[C@H](n2nc(-c3ccc(Oc4ccc(Cl)cn4)cc3)c(C(N)=O)c2N)CCC12CC2		human, fed, plasma	oral, 600 mg, i=11		AUC(0-t), geometric mean	18100 ng·h/mL

SMILES	test	system	setting	scale	quantity	value
CC(=O)N(C)[C@H]1CCN(C(=O)c2cnc3c(c2)C[C@](C)(c2ccc(F)cc2)N3)C1		healthy male subjects, multiple rising dose	oral, 30 mg once daily		drug-related adverse events	25%
CCOCc1nc(O)c(-c2nnc(Cc3ccc(Cl)cn3)o2)c(O)c1-c1c(OC)cccc1OC		anaesthetized rats, plasma	intravenous infusion, 1 µg/kg/min for 15 min, 30 min washout		plasma concentration	35 ± 1 nM
Cc1cc(NC2CCN(C(=O)OC3CCN(C(=O)/C=C/CN(C)C)C3)CC2)n2ncc(C(C)C)c2n1 (stereo not shown)		patients with advanced solid tumours	dose not given, QD arm, any grade		patients with Ascites	5%
Cn1cc([C@H]2COC[C@@H](c3ccc(C(F)(F)F)cc3)N2)cn1	shake-flask, LC-HRMS	aqueous buffer	16 h, pH 6.8		solubility	> 750 µM
CSc1ccccc1C(=O)NCCn1cc(C(=O)NCc2cccc(C)n2)c(=O)c2cc3c(cc21)OC(F)(F)O3		Sprague-Dawley rat, male, whole blood	intravenous, 5 mg/kg of parent compound		MRT(0-inf)	0.41 ± 0.02 h
CC[C@H]1CC[C@H](c2ccc(-c3ccc(F)c(F)c3)cc2)CC1		rat, placenta	5000 ng/mL in perfusate, high dose, mixture of 21 LCMs		placental accumulation	231 ± 356 ng/g
CC(C)(C)C[C@@H]1COC[C@H](c2ccc(-c3ccccc3)cc2)N1	shake-flask, LC-HRMS	aqueous buffer	16 h, pH 6.8		solubility	< 4 µM
CCN1CCN(Cc2ccc(NC(=O)c3ccc(C)c(NC(=O)c4cncc(-c5cccs5)c4)c3)cc2C(F)(F)F)CC1	LC-MS/MS	C57BL/6 mouse, plasma	intraperitoneal, 30 mg/kg single dose, 1 h		plasma concentration	399 ng/mL and 620 ng/mL and 586 ng/mL
COc1cccc(OC)c1-c1cc(C(=O)NC2(C(=O)O)C3CC4CC(C3)CC2C4)nn1-c1ccc(C(=O)N(C)CCCN(C)CCCN(C)C(=O)CN2CCN(CC(=O)[O-])CCN(CC(=O)[O-])CCN(CC(=O)[O-])CC2)cc1C(C)C.[177Lu+3] (stereo not shown)		HT-29 xenograft mouse, kidney	168 h	baseline: initial uptake	renal retention	5 ± 3%
O=C1NCCc2nc(OCc3cccc(F)c3)ccc21	refers to: Catalepsy	Sprague-Dawley rat, male	oral, 100 mg/kg, 1 h, score 0 none to 2 full	direction not given	Irwin test score	0
Nc1ncn([C@H]2C[C@H](O)[C@@H](CO)O2)c(=O)n1		processed mouse plasma	80 ng/mL, 24 h, 4 °C, re-injection stability		mean deviation from nominal	5.48%
C[C@@H](N)c1cc(Cl)ccc1Cn1c(=S)[nH]c(=O)c2[nH]ccc21		human severe renal impairment	oral, 2.5 mg single dose		subjects with severe adverse events	0%
CCn1ncc2c1-c1cnc(N)c(c1)O[C@H](C)c1cc(F)ccc1-c1nn(C)nc1C2		female BALB/c nude mice, PDX	oral, 0.04 mg/kg once daily for 1 days, 1 h		unbound plasma concentration	4.7 ± 0.3 nM
C[C@H]1O[C@@H](O[C@H]2[C@@H](O)C[C@H](O[C@H]3[C@@H](O)C[C@H](O[C@H]4CC[C@@]5(C)[C@H](CC[C@@H]6[C@@H]5C[C@@H](O)[C@]5(C)[C@@H](C7=CC(=O)OC7)CC[C@]65O)C4)O[C@@H]3C)O[C@@H]2C)C[C@H](O)[C@@H]1O	refers to: nervous system disorders	healthy men	oral, dose not given, 8 days, treatment-emergent, crossover trial		subjects with adverse event	4.5%
O=C(Nc1nc2cccc(-c3ccc(CN4CCS(=O)(=O)CC4)cc3)n2n1)C1CC1	refers to: dysgeusia	human rheumatoid arthritis patients	oral, 300 mg once daily, 4 weeks, regardless of relatedness		treatment-emergent adverse events	10%
Cc1ccc(S(=O)(=O)n2cc3c4c2C(=O)C(NCc2ccc(Cl)cc2)=CC4=NCC3)cc1		Sprague-Dawley rat, plasma	intravenous, 5 mg/kg, two-compartment model		central compartment volume	0.007 L/kg and 0.005 L/kg and 0.003 L/kg
COc1ccc([C@@H]2COC[C@H](c3ccc(-c4ccccc4)cc3)N2)cc1	shake-flask, LC-HRMS	aqueous buffer	16 h, pH 6.8		solubility	< 4 µM
NC1(C(=O)N[C@@H](CCO)c2ccc(Cl)cc2)CCN(c2nc[nH]c3nccc2-3)CC1		metastatic CRPC patients	400 mg b.i.d., any grade, treatment-related, together with: enzalutamide 160 mg daily		incidence of Neutropenia	14.3%

Excerpt of the above:
SMILES	test	system	setting	scale	quantity	value
COc1cccc(OC)c1-c1cc(C(=O)NC2(C(=O)O)C3CC4CC(C3)CC2C4)nn1-c1ccc(C(=O)N(C)CCCN(C)CCCN(C)C(=O)CN2CCN(CC(=O)[O-])CCN(CC(=O)[O-])CCN(CC(=O)[O-])CC2)cc1C(C)C.[177Lu+3] (stereo not shown)		HT-29 xenograft mouse, kidney	168 h	baseline: initial uptake	renal retention	5 ± 3%
CCOCc1nc(O)c(-c2nnc(Cc3ccc(Cl)cn3)o2)c(O)c1-c1c(OC)cccc1OC		anaesthetized rats, plasma	intravenous infusion, 1 µg/kg/min for 15 min, 30 min washout		plasma concentration	35 ± 1 nM
COc1cccc(OC)c1-c1cc(C(=O)NC2(C(=O)O)C3CC4CC(C3)CC2C4)nn1-c1ccc(C(=O)N(C)CCCN(C)CCCN(C)C(=O)CN2CCN(CC(=O)[O-])CCN(CC(=O)[O-])CCN(CC(=O)[O-])CC2)cc1C(C)C.[177Lu+3] (stereo not shown)		SCID mouse, HT-29 xenograft	iv, dose not given, 4 h		excretion (urine and faeces)	55 ± 7 % ID
Cc1cc(-c2cn[nH]c2-c2cccc(OCc3cccc(C#N)c3)c2)cc(C)n1		C57BL/6 mouse	intraperitoneal, 200 mg/kg daily for 5 days		tolerability	not toxic
